Measurements collected from several papers.
Each line is one published result; not all experiments were run side by side. Values joined by “and” are separate records of one study, mostly repeats; a detail may differ. ± gives the spread as reported.
Chain of UniProt P40926 (whole entry, looked up): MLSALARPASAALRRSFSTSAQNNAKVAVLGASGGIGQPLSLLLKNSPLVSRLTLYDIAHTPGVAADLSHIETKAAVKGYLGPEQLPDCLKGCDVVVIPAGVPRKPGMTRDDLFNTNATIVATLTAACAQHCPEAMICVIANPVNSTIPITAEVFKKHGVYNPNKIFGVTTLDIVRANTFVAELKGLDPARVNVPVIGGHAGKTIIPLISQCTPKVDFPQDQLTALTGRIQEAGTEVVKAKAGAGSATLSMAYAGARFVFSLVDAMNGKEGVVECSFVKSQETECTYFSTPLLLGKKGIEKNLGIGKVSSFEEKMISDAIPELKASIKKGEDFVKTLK

SMILES	tested on	test	test system	conditions	scale	measurement	value
Cn1cncc1-c1c(F)cncc1NC(=O)c1c(N)nn2cc(F)cnc12	–	–	human patients	oral, 130 mg once daily, 21 days	–	dose-limiting toxicity anaemia	13%
CC(C)=CC1C(C(=O)OC(C#N)c2cccc(Oc3ccccc3)c2)C1(C)C (centres unmarked)	–	refers to: CYP2B6	human, age 6 months	–	–	enzyme contribution to clearance	0.85%
C1=Cc2nc1cc1ccc([n-]1)c(-c1ccccc1)c1nc(cc3ccc([n-]3)c2-c2ccccc2)C=C1.CC(=O)[O-].[Mn+3]	–	LC-MS/MS	Sprague-Dawley rat, plasma	oral gavage, dose not given, 240 min, individual rat Rat2	–	plasma concentration	109 ng/mL
Clc1cccc(-c2ccccc2)c1	–	–	PDMS-water partitioning	PCB compilation	baseline: maximum over minimum K	literature range factor	1.2
N=C(N)NCCC[C@@H](NC(=O)[C@@H](N)Cc1ccccc1)C(=O)N[C@@H](Cc1ccccc1)C(=O)N[C@@H](CCCCN)C(N)=O	–	LC-MS	human	5 mg, 23.83 h	–	median amount excreted in urine	91600 ng
O=S(=O)(Nc1ccccc1)c1ccc(NC(=S)Nc2ccccc2)cc1	–	refers to: AST	male mouse, blood	oral, 20 mg/kg daily, 14 days	–	serum enzyme activity	296 U/L
CC(C)C[C@@H]1NC(=O)CNC(=O)[C@H](CC(N)=O)NC(=O)[C@H](CCCNC(=N)N)NC(=O)[C@H](CCCCN)NC(=O)[C@@H]2CSSC[C@@H]3NC(=O)[C@H]([C@@H](C)O)NC(=O)CNC(=O)CNC(=O)[C@H](C(C)C)NC(=O)[C@@H]4CSSC[C@H](NC(=O)[C@H]([C@@H](C)O)NC(=O)[C@H](CSSC[C@H](NC(=O)[C@H](C(C)C)NC(=O)[C@@H]5CCCN5C1=O)C(=O)NCC(=O)N[C@@H](CCC(=O)O)C(=O)N[C@@H]([C@@H](C)O)C(=O)N4)NC(=O)CNC(=O)[C@@H]1CCCN1C(=O)[C@H]([C@@H](C)O)NC(=O)[C@H](CC(N)=O)NC3=O)C(=O)N[C@@H](CO)C(=O)N[C@@H](Cc1c[nH]c3ccccc13)C(=O)N1CCC[C@H]1C(=O)N[C@@H](C(C)C)C(=O)N2	–	HPLC	ammonium bicarbonate 0.1 M	180 µM, 7 days, pH 9.0, 37 °C, deamidation stability	–	remaining peptide	44.1 ± 2.7%
COc1cccc2c1CCCC2CCCN1CCN(C2CCCCC2)CC1 (centres unmarked)	–	–	CD-1 mouse, male, plasma	intraperitoneal, 10 mg/kg	–	Tmax	15 min
O=C(Nc1ccccc1)C1CCN(C(=O)Oc2cccnc2)CC1	–	Bond-Lader VAS	healthy women	oral, 100 mg	baseline: pre-dose baseline, direction not given	change in Interested-Bored score	-13
Fc1ccc([C@@H]2CCNC[C@H]2COc2ccc3c(c2)OCO3)cc1	–	refers to: Dizziness	healthy volunteers	oral, dose not given, given -1 h relative to LSD, with: LSD	direction not given	List of Complaints score	0 score
CC(C)C[C@H](NC(=O)[C@H](CCCCN)NC(=O)OCC1c2ccccc2-c2ccccc21)C(=O)N[C@H](C(=O)N[C@@H](Cc1ccccc1)C(=O)N[C@@H](Cc1ccccc1)C(=O)N[C@@H](CCCCN)C(=O)NCC(=O)N[C@@H](Cc1ccccc1)C(=O)N[C@@H](C)C(=O)N[C@@H](Cc1c[nH]c2ccccc12)C(=O)N[C@@H](CC(N)=O)C(=O)N[C@H](C(=O)N[C@H]1CSSC[C@@H](C(=O)N[C@@H](Cc2c[nH]cn2)C(=O)N[C@@H](CCCNC(=N)N)C(=O)N[C@@H](CCCNC(=N)N)C(=O)N[C@@H](C)C(=O)N[C@@H](CC(N)=O)C(N)=O)NC(=O)[C@H](C(C)C)NC(=O)[C@H](CCCNC(=N)N)NC(=O)[C@H](C(C)C)NC(=O)CNC(=O)[C@H](CC(N)=O)NC(=O)[C@H](CCCNC(=N)N)NC(=O)[C@H](Cc2ccc(O)cc2)NC(=O)[C@H](C(C)C)NC1=O)C(C)C)C(C)C	–	–	ICR mouse	ip, 10 mg/kg	direction not given	stimulus response score	0
CCOc1cc(Oc2ccc(C(F)(F)F)cc2Cl)ccc1[N+](=O)[O-]	–	–	rat male	62.5 mg/kg, 8 days	–	final body weight	138 ± 5.44 g
C[C@H]1CN(c2n[nH]c3nc(N[C@H]4CC[C@H](NS(=O)(=O)CCC(F)(F)F)CC4)ncc23)CCO1	Malate dehydrogenase, mitochondrial (MDH2, Homo sapiens, UniProt P40926)	inhibitor, Kinobeads competition profiling	–	0.032 µM	baseline: vehicle	relative abundance	0.99
C[C@]1(CO)Cc2ncn(-c3ccc(C#N)c(Cl)c3)c2C(=O)O1	–	–	healthy Japanese adults, plasma	20 mg single dose	–	AUC(0-inf)	7.11 µM·h
CO[C@H]1C[C@@H]2CC[C@@H](C)[C@@](O)(O2)C(=O)C(=O)N2CCCC[C@H]2C(=O)O[C@H]([C@H](C)C[C@@H]2CC[C@@H](OC(=O)NCCOCCOCCOCCOCCOCCOCCOCCOCCC(=O)N3CCc4cc(Cn5nc(-c6ccc7oc(N)nc7c6)c6c(N)ncnc65)ccc4C3)[C@H](OC)C2)C[C@@H](O)[C@H](C)/C=C(\C)[C@@H](O)[C@@H](OC)C(=O)[C@H](C)C[C@H](C)/C=C/C=C/C=C/1C	–	phase 1 dose escalation, refers to: nausea	advanced solid tumour patients	intravenous, 8 mg weekly, grade ≥3	–	TRAE incidence	6.3%
C[C@@H](NC(=O)N1C(=O)[C@H](Cc2ccnc(N)c2)[C@H]1C(=O)O)C1CCCCC1	–	–	healthy adult Chinese volunteers	continuous intravenous infusion, 1.0 mg/kg/h, 5-day infusion, CTCAE 5.0 grading	–	incidence of decreased neutrophil	0%
Clc1cc(Cl)cc(-c2cc(Cl)ccc2Cl)c1	–	–	fresh water	20 °C, SSP sampler, 100 µm	–	log K(PDMS-water)	5.66 ± 0.03
CCN(CCO)CCCC(C)Nc1ccnc2cc(Cl)ccc12 (centres unmarked)	–	–	newly diagnosed glioblastoma patients	oral, 200 mg/dose, grade 2, with: radiotherapy and temozolomide	–	neutrophil decrease patients	66%
CC/C(=C(\c1ccccc1)c1ccc(OCCN(C)C)cc1)c1ccccc1	–	–	CD-1 mouse, male, plasma	intraperitoneal, 3 mg/kg	–	elimination rate constant	2.48e-05 s⁻¹
COc1ncccc1-c1cnn2ccc(N3CCN(C(=O)OC(C)C)CC3)nc12	–	–	mouse nerve ligation model, plasma	oral, 3 mg/kg, 120 min after last dose, repeat dosing day 5	–	drug concentration	370 nM
CCOC(=O)N1CCC(=C2c3ccc(Cl)cc3CCc3cccnc32)CC1	Plasmodium falciparum	–	HB3	–	–	IC50	6.31 µM

SMILES	tested on	test	test system	conditions	scale	measurement	value
COc1cc(C2C3=C(COC3=O)N(CCO)c3cc4c(cc32)CCC4)cc(OC)c1OC (centres unmarked)	–	–	female Sprague-Dawley rats	intraperitoneal, 400 mg/kg, 24 h, single dose, mean	–	body weight	200 g
CC(C)C[C@@H]1NC(=O)CNC(=O)[C@H](CC(N)=O)NC(=O)[C@H](CCCCN)NC(=O)[C@H]([C@@H](C)O)NC(=O)[C@@H]2CSSC[C@@H]3NC(=O)[C@H]([C@@H](C)O)NC(=O)CNC(=O)CNC(=O)[C@H](C(C)C)NC(=O)[C@@H]4CSSC[C@H](NC(=O)[C@H]([C@@H](C)O)NC(=O)[C@H](CSSC[C@H](NC(=O)[C@H](C(C)C)NC(=O)[C@@H]5CCCN5C1=O)C(=O)NCC(=O)N[C@@H](CCC(=O)O)C(=O)N[C@@H]([C@@H](C)O)C(=O)N4)NC(=O)CNC(=O)[C@@H]1CCCN1C(=O)[C@H]([C@@H](C)O)NC(=O)[C@H](CC(N)=O)NC3=O)C(=O)N[C@@H](CO)C(=O)N[C@@H](Cc1c[nH]c3ccccc13)C(=O)N1CCC[C@H]1C(=O)N[C@@H](C(C)C)C(=O)N2	–	HPLC	water	180 µM, 14 days, 37 °C, deamidation stability	–	remaining peptide	98.1 ± 0.3%
CC(C)c1nc(N(C)S(C)(=O)=O)nc(-c2ccc(F)cc2)c1/C=C/[C@@H](O)C[C@@H](O)CC(=O)O	–	–	healthy human subjects	oral, dose not given, study CL-0537 safety set	–	incidence of Fatigue	3.6%
COc1ccc(C[C@@H]2NC(=O)[C@H]([C@@H](C)O)NC(=O)[C@@H]3[C@@H]4CCN3C(=O)[C@@H]3Cc5cn(c6ccc(F)cc56)CCCCCCN(Cc5ccc(cc5)CCNC(=O)[C@]5(C)CCCN5C2=O)C(=O)CCC(=O)N[C@@H](C)C(=O)N[C@H](CNC(=O)CCCCC[N+](C)(C)C)C(=O)N[C@@H](Cc2cccc(c2)CNC(=O)CO4)C(=O)N3)cc1	–	refers to: Asthenia	humans	concentration not given, Study-001	–	participants with adverse event	2%
N.N.[Cl][Pt][Cl]	–	–	mouse xenograft model	dose not given, day 4	–	body weight	25 g and 24 g and 23 g
COc1cc2c(Oc3ccc4[nH]c(C)cc4c3F)ccnc2cc1OCC1(N)CC1	–	–	paediatric recurrent refractory sarcoma	concentration not given, whole group	–	grade 3 Vomiting	0%
Clc1cc(Cl)c(-c2c(Cl)c(Cl)c(Cl)c(Cl)c2Cl)cc1Cl	–	–	PDMS-water partitioning	PCB compilation	baseline: maximum over minimum K	literature range factor	2
CC(=O)c1c(C)c2cnc(Nc3ccc(C4CCN(CCS(C)(=O)=O)CC4)cn3)nc2n(C2CCCC2)c1=O	–	–	HR+/HER2- advanced breast cancer patients	oral, dose not given, all grades,, total	–	patients with Anemia	44.4%
CN1CCN(c2ccc(Nc3nccc(-c4cccc(Cl)c4)n3)cc2C(F)(F)F)CC1	–	–	zebrafish embryos	25 µM, 5 d	–	toxicity	0%
CCNCCCNC/C=C\CNCCCNCC	–	–	human, advanced solid tumours	intravenous, dose not given	baseline: patients	ECG changed from normal baseline	11.1%
c1ccc2c(c1)c1cccc3ccc4cccc2c4c31	–	–	fresh water	12 (unit not given), 20 °C, SSP sampler, 100 µm	–	log K(PDMS-water)	5.09 ± 0.02
CCc1ccc(CC/C=C/c2ccc3c(c2)C(=O)CC3)cc1	–	–	Sprague-Dawley rat, male	oral, 120 mg/kg/day, 14 days	–	Erythrocyte percentage	12.9%
[O-][S+]1CCc2nc(N3CCC(c4ncc(Cl)cn4)CC3)nc(NC3(CO)CCC3)c21 (centres unmarked)	–	–	idiopathic pulmonary fibrosis patients	18 mg twice daily	–	Nausea adverse events	10%
CCN(CC)[C@@H]1CCc2c(F)ccc(O)c2C1	Plasmodium falciparum	–	Dd2	–	–	IC50	2 µM
COc1ccc(-c2c(-c3ccc(C#N)c(F)c3)nc(N3CCC(N)CC3)n(C)c2=O)cc1F	–	refers to: Pruritus	relapsed/refractory marginal zone lymphoma patients	oral, 60 mg, any grade, dose expansion	–	treatment-related adverse event incidence	0%
CN1CC[C@@H](c2c(O)cc(O)c3c(=O)cc(-c4ccc(C(F)(F)F)cc4Cl)oc23)[C@@H]1CO	–	refers to: Hypoalbuminemia	relapsed B-cell malignancies or AML	oral, 100 mg, grade 3-4, continuous dosing	–	patients with adverse event	0%
CC(C)CC(=O)OC[C@H]1O[C@@](C#N)(c2ccc3c(N)ncnn23)[C@H](O)[C@@H]1O	–	–	human plasma	90 µM	–	fraction unbound	0.184
CCC[C@H]1CC[C@H](c2ccc(-c3ccc(F)cc3)cc2)CC1	–	refers to: compound	human pregnant women, male fetuses, maternal serum	dose not given, paired maternal-cord samples, mean	–	concentration	0.81 ng/mL
CCCSc1ccc2nc(NC(=O)OC)[nH]c2c1	–	–	mouse, blood	oral, 50 mg/kg, tolerability, mean	–	haematocrit	39.8%
CCN1[C@@H](C(=O)NC23CCC(C(=O)O)(CC2)CC3)[C@H](c2cccc(Cl)c2F)[C@]2(C(=O)Nc3cc(Cl)ccc32)C12CCCCC2	–	–	patients with advanced solid tumours	oral, 200 mg	–	Headache incidence	0%

Repeated from above:
SMILES	tested on	test	test system	conditions	scale	measurement	value
CCNCCCNC/C=C\CNCCCNCC	–	–	human, advanced solid tumours	intravenous, dose not given	baseline: patients	ECG changed from normal baseline	11.1%
[O-][S+]1CCc2nc(N3CCC(c4ncc(Cl)cn4)CC3)nc(NC3(CO)CCC3)c21 (centres unmarked)	–	–	idiopathic pulmonary fibrosis patients	18 mg twice daily	–	Nausea adverse events	10%
C1=Cc2nc1cc1ccc([n-]1)c(-c1ccccc1)c1nc(cc3ccc([n-]3)c2-c2ccccc2)C=C1.CC(=O)[O-].[Mn+3]	–	LC-MS/MS	Sprague-Dawley rat, plasma	oral gavage, dose not given, 240 min, individual rat Rat2	–	plasma concentration	109 ng/mL
CC(=O)c1c(C)c2cnc(Nc3ccc(C4CCN(CCS(C)(=O)=O)CC4)cn3)nc2n(C2CCCC2)c1=O	–	–	HR+/HER2- advanced breast cancer patients	oral, dose not given, all grades,, total	–	patients with Anemia	44.4%
CC(C)C[C@H](NC(=O)[C@H](CCCCN)NC(=O)OCC1c2ccccc2-c2ccccc21)C(=O)N[C@H](C(=O)N[C@@H](Cc1ccccc1)C(=O)N[C@@H](Cc1ccccc1)C(=O)N[C@@H](CCCCN)C(=O)NCC(=O)N[C@@H](Cc1ccccc1)C(=O)N[C@@H](C)C(=O)N[C@@H](Cc1c[nH]c2ccccc12)C(=O)N[C@@H](CC(N)=O)C(=O)N[C@H](C(=O)N[C@H]1CSSC[C@@H](C(=O)N[C@@H](Cc2c[nH]cn2)C(=O)N[C@@H](CCCNC(=N)N)C(=O)N[C@@H](CCCNC(=N)N)C(=O)N[C@@H](C)C(=O)N[C@@H](CC(N)=O)C(N)=O)NC(=O)[C@H](C(C)C)NC(=O)[C@H](CCCNC(=N)N)NC(=O)[C@H](C(C)C)NC(=O)CNC(=O)[C@H](CC(N)=O)NC(=O)[C@H](CCCNC(=N)N)NC(=O)[C@H](Cc2ccc(O)cc2)NC(=O)[C@H](C(C)C)NC1=O)C(C)C)C(C)C	–	–	ICR mouse	ip, 10 mg/kg	direction not given	stimulus response score	0
